{"data": "Assay results collected from several papers", "B1": "SRS2 1107-1174 L1156A (Saccharomyces cerevisiae, UniProt P12954); N-terminal cysteine BODIPY-FL; chain CHNPDDTTVDNRPIISNAKFLADAAMKKTQKFSKKVKNEPASSQMDIFSQASRAKKKSKLNNGEIIVID", "B2": "SMARCD3 SWIFT domain (Homo sapiens); chain MKQKRKLRLYISNTFNPAKPDAEDSDGSIASWELRVEGKLLDDPSKQKRKFSSFFKSLVIELDKDLYGPDNHLVEWHRTPTTQETDGFQVKRPGDLSVRCTLLLMLDYQPPQFLPPDPIVINHVISVDPSDQKKTACYDIDVEVEEPL", "B3": "EFR3A 721-791 (Homo sapiens, UniProt Q14156); chain SNTEEITFEALKKAIDTSGMEEQEKEKRRLVIEKFQKAPFEEIAAQCESKANLLHDRLAQILELTIRPPPS", "B4": "UBQLN2 450-624 (Homo sapiens, UniProt Q9UHD9); chain RAMQALMQIQQGLQTLATEAPGLIPSFTPGVGVGVLGTAIGPVGPVTPIGPIGPIVPFTPIGPIGPIGPTGPAAPPGSTGSGGPTGPTVSSAAPSETTSPTSESGPNQQFIQQMVQALAGANAPQLPNPEVRFQQQLEQLNAMGFLNREANLQALIATGGDINAAIERLLGSQPS", "B5": "RSPO4/IgG1 Fc RSPO4 32-137 Q65R/N297Q; CPT2 conjugated via azide click; chain GGNCTGCIICSEENGCSTCQQRLFLFIRREGIRRYGKCLHDCPPGYFGIRGQEVNRCKKCGATCESCFSQDFCIRCKRQFYLYKGKCLPTCPPGTLAHQNTRECQGGGGGSGGGGSGGGGS", "B6": "BIK (Homo sapiens, UniProt Q13323); chain MSEVRPLSRDILMETLLYEQLLEPPTMEVLGMTDSEEDLDPMEDFDSLECMEGSDALALRLACIGDEMDVSLRAPRLAQLSEVAMHSLGLAFIYDQTEDIRDVLRSFMDGFTTLKENIMRFWRSPNPGSWVSCEQVLLALLLLLALLLPLLSGGLHLLLK", "B7": "Notch ankyrin domain 1902-2139 (Drosophila, UniProt P07207); chain GLTPLMIAAVRGGGLDTGEDIENNEDSTAQVISDLLAQGAELNATMDKTGETSLHLAARFARADAAKRLLDAGADANCQDNTGRTPLHAAVAADAMGVFQILLRNRATNLNARMHDGTTPLILAARLAIEGMVEDLITADADINAADNSGKTALHWAAAVNNTEAVNILLMHHANRDAQDDKDETPLFLAAREGSYEACKALLDNFANREITDHMDRLPRDVASERLHHDIVRLLDEH", "B8": "human catalase; sequence looked up; chain ADSRDPASDQMQHWKEQRAAQKADVLTTGAGNPVGDKLNVITVGPRGPLLVQDVVFTDEMAHFDRERIPERVVHAKGAGAFGYFEVTHDITKYSKAKVFEHIGKKTPIAVRFSTVAGESGSADTVRDPRGFAVKFYTEDGNWDLVGNNTPIFFIRDPILFPSFIHSQKRNPQTHLKDPDMVWDFWSLRPESLHQVSFLFSDRGIPDGHRHMNGYGSHTFKLVNANGEAVYCKFHYKTDQGIKNLSVEDAARLSQEDPDYGIRDLFNAIATGKYPSWTFYIQVMTFNQAETFPFNPFDLTKVWPHKDYPLIPVGKLVLNRNPVNYFAEVEQIAFDPSNMPPGIEASPDKMLQGRLFAYPDTHRHRLGPNYLHIPVNCPYRARVANYQRDGPMCMQDNQGGAPNYYPNSFGAPEQQPSALEHSIQYSGEVRRFNTANDDNVTQVRAFYVNVLNEEQRKRLCENIAGHLKDAQIFIQKKAVKNFTEVHPDYGSHIQALLDKYNAEKPKNAIHTFVQSGSHLAAREKANL", "B9": "IL18 37-193 N50C/C74S/C104S/L174C (Homo sapiens, UniProt Q14116); chain YFGKLESKLSVIRCLNDQVLFIDQGNRPLFEDMTDSDSRDNAPRTIFIISMYKDSQPRGMAVTISVKSEKISTLSCENKIISFKEMNPPDNIKDTKSDIIFFQRSVPGHDNKMQFESSSYEGYFLACEKERDLFKLICKKEDELGDRSIMFTVQNED", "note": "Protocols differ between the studies behind these lines. ± gives the spread as reported.", "sequence of UniProt P70345 (whole entry, looked up)": "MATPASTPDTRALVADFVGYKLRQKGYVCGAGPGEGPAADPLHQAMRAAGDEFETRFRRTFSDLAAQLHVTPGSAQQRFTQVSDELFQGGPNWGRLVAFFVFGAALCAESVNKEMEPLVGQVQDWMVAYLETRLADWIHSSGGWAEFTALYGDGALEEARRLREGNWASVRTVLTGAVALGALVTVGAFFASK", "sequence of UniProt Q9WV60 (whole entry, looked up)": "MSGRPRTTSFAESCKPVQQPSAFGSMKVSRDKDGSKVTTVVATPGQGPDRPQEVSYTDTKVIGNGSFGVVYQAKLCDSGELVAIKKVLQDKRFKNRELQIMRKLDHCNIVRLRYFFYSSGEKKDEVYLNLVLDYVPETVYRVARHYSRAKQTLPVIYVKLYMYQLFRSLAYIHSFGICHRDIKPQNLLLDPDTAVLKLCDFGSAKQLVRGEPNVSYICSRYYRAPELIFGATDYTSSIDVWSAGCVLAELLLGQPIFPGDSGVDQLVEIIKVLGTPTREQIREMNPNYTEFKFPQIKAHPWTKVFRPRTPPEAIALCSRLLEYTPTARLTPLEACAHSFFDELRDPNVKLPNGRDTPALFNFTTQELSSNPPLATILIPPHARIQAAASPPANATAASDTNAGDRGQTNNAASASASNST", "sequence of UniProt Q71LX4 (whole entry, looked up)": "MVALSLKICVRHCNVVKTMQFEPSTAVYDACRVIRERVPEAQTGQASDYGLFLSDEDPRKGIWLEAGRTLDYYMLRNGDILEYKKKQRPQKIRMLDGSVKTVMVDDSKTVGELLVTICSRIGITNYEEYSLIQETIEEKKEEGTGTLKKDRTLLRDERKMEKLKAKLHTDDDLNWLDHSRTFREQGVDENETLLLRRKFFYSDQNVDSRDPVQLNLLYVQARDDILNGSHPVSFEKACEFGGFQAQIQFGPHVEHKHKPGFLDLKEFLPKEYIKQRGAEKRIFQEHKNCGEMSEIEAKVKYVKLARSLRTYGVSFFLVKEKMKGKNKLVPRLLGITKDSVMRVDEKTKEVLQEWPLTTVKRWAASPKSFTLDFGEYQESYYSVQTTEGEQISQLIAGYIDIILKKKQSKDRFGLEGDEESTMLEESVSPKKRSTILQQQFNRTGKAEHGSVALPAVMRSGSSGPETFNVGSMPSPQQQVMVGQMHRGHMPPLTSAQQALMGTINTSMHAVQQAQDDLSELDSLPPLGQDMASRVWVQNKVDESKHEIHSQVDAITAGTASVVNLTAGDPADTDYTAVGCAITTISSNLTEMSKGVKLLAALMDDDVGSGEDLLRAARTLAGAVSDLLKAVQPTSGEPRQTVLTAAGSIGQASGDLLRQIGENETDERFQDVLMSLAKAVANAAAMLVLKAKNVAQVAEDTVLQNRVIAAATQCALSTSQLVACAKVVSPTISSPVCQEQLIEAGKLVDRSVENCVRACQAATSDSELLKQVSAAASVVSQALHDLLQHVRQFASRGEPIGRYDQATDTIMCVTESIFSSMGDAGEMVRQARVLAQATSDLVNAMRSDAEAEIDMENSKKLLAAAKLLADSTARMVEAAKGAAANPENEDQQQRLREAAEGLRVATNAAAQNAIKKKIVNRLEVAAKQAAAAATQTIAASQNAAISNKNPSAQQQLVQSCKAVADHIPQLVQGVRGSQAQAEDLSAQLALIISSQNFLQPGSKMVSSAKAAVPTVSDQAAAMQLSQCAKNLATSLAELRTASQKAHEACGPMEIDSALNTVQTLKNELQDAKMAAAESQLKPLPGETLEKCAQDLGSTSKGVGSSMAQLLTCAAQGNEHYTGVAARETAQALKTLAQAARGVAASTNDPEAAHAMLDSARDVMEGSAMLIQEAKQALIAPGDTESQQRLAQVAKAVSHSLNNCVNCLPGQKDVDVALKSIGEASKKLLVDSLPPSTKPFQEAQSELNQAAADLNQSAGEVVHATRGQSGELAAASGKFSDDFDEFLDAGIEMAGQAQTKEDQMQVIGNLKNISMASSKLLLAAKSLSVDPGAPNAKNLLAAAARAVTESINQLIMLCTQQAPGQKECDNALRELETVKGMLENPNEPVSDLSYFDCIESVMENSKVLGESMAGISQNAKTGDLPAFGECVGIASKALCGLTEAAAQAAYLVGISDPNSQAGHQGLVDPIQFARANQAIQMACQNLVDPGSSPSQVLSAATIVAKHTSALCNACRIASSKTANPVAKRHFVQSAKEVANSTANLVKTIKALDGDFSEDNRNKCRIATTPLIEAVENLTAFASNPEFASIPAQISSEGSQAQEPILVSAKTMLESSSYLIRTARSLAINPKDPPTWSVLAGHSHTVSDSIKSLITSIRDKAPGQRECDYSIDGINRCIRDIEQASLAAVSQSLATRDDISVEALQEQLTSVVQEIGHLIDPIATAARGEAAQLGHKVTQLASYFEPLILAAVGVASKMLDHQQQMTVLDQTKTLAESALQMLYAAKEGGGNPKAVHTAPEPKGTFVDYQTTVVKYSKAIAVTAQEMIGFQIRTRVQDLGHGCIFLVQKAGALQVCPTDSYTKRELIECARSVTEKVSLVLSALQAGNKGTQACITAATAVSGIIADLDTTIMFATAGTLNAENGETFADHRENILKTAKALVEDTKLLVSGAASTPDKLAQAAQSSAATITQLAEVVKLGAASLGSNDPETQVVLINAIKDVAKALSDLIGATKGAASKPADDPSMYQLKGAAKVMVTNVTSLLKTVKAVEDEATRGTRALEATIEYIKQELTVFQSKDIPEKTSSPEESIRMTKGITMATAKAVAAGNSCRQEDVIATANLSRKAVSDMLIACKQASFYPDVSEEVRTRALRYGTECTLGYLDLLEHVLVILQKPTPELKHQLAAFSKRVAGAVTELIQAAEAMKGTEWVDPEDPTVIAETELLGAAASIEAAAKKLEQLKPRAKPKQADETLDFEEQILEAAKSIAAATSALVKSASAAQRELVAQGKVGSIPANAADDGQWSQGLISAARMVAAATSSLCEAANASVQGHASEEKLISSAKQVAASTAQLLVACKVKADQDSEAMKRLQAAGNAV", "sequence of UniProt Q23985 (whole entry, looked up)": "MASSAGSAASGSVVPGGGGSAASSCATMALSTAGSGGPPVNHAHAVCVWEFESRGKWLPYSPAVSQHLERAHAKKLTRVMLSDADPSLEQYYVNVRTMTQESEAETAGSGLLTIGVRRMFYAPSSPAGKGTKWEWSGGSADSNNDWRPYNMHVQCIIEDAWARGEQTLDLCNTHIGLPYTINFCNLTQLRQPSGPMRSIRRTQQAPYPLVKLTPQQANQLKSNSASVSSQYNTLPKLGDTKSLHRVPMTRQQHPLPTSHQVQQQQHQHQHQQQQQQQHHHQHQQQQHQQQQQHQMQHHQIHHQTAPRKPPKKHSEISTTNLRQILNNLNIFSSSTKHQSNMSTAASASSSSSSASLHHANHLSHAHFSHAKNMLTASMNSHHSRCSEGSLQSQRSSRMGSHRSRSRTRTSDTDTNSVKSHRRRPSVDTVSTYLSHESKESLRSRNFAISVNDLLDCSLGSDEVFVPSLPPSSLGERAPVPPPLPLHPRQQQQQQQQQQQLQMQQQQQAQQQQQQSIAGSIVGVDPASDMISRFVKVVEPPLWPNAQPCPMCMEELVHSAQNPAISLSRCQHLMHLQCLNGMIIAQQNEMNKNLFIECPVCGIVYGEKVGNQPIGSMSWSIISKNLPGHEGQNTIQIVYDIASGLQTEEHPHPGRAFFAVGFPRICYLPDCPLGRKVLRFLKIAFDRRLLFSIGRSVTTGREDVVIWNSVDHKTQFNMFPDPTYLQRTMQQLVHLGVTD", "sequence of UniProt Q5BJF2 (whole entry, looked up)": "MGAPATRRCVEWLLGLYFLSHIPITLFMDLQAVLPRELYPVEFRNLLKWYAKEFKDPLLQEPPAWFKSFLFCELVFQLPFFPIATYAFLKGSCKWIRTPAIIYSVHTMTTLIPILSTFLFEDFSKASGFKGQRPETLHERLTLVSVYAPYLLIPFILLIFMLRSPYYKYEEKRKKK", "sequence of UniProt P08253 (whole entry, looked up)": "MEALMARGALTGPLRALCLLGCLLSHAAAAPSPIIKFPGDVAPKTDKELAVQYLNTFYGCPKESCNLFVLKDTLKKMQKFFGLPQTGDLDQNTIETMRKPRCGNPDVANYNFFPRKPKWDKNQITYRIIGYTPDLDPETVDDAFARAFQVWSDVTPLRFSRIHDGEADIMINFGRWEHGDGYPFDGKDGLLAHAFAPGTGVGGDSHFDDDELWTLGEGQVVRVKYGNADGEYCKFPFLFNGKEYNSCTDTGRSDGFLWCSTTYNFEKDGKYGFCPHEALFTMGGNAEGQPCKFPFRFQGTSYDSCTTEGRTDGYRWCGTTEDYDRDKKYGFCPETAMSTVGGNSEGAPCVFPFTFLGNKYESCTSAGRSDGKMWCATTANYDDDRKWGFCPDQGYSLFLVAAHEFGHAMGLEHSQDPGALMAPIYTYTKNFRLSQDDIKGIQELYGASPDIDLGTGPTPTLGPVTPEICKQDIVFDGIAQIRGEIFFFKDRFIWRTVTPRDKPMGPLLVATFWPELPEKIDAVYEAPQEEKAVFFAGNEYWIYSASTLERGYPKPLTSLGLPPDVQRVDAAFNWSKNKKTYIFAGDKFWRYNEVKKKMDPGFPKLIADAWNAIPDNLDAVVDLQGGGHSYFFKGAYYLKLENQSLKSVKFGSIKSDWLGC", "sequence of UniProt P02638 (whole entry, looked up)": "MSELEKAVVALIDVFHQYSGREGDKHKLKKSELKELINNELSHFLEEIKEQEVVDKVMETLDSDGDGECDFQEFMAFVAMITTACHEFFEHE"}
{"Substance": "B1 (SRS2 1107-1174 L1156A)", "target or system": "POL30 1-258 K127G (Saccharomyces cerevisiae, UniProt P15873)", "assay": "fluorescence polarisation", "setting": "apparent", "measurement": "Kd", "result": "12400 nM"}
{"Substance": "B2 (SMARCD3 SWIFT domain)", "target or system": "POU2F3 (UniProt Q9UKI9)", "assay": "MST", "measurement": "Kd", "result": "> 13000 nM"}
{"Substance": "YIKTPLGTFPNRHGC (engineered peptide)", "target or system": "VPS35/VPS26A/VPS29 retromer complex (Homo sapiens)", "assay": "SPR", "test system": "peptide", "measurement": "Kd", "result": "1.4 nM"}
{"Substance": "B3 (EFR3A 721-791)", "target or system": "PI4KA/TTC7B/FAM126A TTC7B/FAM126A", "assay": "BLI", "measurement": "Kd", "result": "0.043 ± 0.014 nM"}
{"Substance": "colistin", "target or system": "Enterobacter cloacae", "test system": "clinical isolate RKI 37/14", "measurement": "MIC", "result": "≤ 0.5 µg/mL"}
{"Substance": "APOA1 mature (Homo sapiens)", "target or system": "MMP2 359-660 (Homo sapiens, UniProt P08253)", "assay": "MST", "measurement": "Kd", "result": "134 nM"}
{"Substance": "UBE2D2 (Homo sapiens, UniProt P62837)", "target or system": "NEDD4 HECT domain, Cy5 N-terminus (Homo sapiens)", "assay": "MST", "setting": "with: UbV 5 µM", "measurement": "Kd", "result": "271000 ± 70000 nM"}
{"Substance": "B4 (UBQLN2 450-624)", "target or system": "ubiquitin (UniProt P0CG48)", "assay": "NMR titration", "measurement": "Kd", "result": "3380 nM"}
{"Substance": "GMP synthase (human)", "target or system": "PP6C (human)", "assay": "co-immunoprecipitation, IP-MS", "test system": "CYB5R4 knockout cells", "setting": "concentration not given", "scale": "relative to: CYB5R4 knockout over parental", "measurement": "log2 fold change", "result": 0.94}
{"Substance": "TRTKIDWNKILS (CAPZA1 residues 265-276)", "target or system": "S100B (Bos taurus, UniProt P02638)", "assay": "fluorescence titration", "test system": "peptide", "measurement": "Kd", "result": "210 ± 30 nM"}
{"Substance": "B5", "target or system": "LGR4 (Homo sapiens, UniProt Q9BXB1)", "assay": "whole-cell binding saturation", "test system": "Fc fusion, HEK293T", "measurement": "Kd", "result": "2.4 nM"}
{"Substance": "HEKHHSHREFPFYGDYGSNYLYDN (HTN1 34-57 (Homo sapiens, UniProt P15515); sequence looked up)", "target or system": "TMEM97 (Homo sapiens, UniProt Q5BJF2)", "assay": "SPR", "test system": "peptide", "measurement": "Kd", "result": "> 50000 nM"}
{"Substance": "SSSPQQRSGLRSQKLHLTYIEKNKRVRAMIPQ (lst-1 67-98 (Caenorhabditis elegans, UniProt P91820); sequence looked up)", "target or system": "fbf-1 162-614 (Caenorhabditis elegans, UniProt Q9N5M6)", "assay": "ITC", "test system": "peptide", "setting": "NaCl 150 mM", "measurement": "Kd", "result": "400 nM"}
{"Substance": "GLP-1/MC4 receptor agonist chimeric peptide, D-Ser position 2", "target or system": "GLP1R (Homo sapiens, UniProt P43220)", "assay": "competitive binding", "test system": "CHO-K1", "setting": "with: Ex-4 reference", "measurement": "Kd", "result": "9.9 nM"}
{"Substance": "KLLMIIHDRREFAKFEKEKMNAKWDTGENPIYKSPINNFKNPNYGRKAGL (ITGB1 752-801 Q778G (Homo sapiens, UniProt P05556-5); sequence looked up)", "target or system": "Tln2 312-408 (Mus musculus, UniProt Q71LX4)", "assay": "NMR titration", "measurement": "Kd", "result": "97000 nM"}
{"Substance": "GCVRLHESCLGQQVPCCDPAATCYCYGRGDNDLRCYCR (designed binder)", "target or system": "ITGA2B/ITGB3 K562 cells", "assay": "flow cytometry", "test system": "designed binder, U87MG", "measurement": "Kd", "result": "> 100 nM"}
{"Substance": "DHEYVLTESFLDSGAFPNHDVIDHNKMLNSNYNGNGILNKGGVLGLVKEYYKKSDVGR (ATG9 940-997 (Saccharomyces cerevisiae, UniProt Q12142); sequence looked up)", "target or system": "ATG23 Y16E (Saccharomyces cerevisiae, UniProt Q06671)", "assay": "BLI", "measurement": "Kd", "result": "1720 nM"}
{"Substance": "B6 (BIK)", "target or system": "Bcl2l2 (Mus musculus, UniProt P70345)", "assay": "FRET or BRET", "setting": "not purified", "measurement": "Kd", "result": "9000 nM"}
{"Substance": "WGSGGVEPQKFAEEPIHRLEAVQRTREAEEKLEERLKRVRMEEEGEDGDPSSGPPGPC (AXIN1 383-435 L392P (Homo sapiens); HiLyte488 label)", "target or system": "Gsk3b 26-383 (Mus musculus, UniProt Q9WV60)", "assay": "fluorescence polarisation", "measurement": "Kd", "result": "> 5000 nM"}
{"Substance": "MBL-A mature, hydroxylysine, hydroxyproline in collagen (Rattus norvegicus, UniProt P19999)", "target or system": "C1R fragment (Homo sapiens)", "assay": "SPR", "setting": "with: CaCl2 140 mM", "measurement": "Kd", "result": "130 nM"}
{"Substance": "B7 (Notch ankyrin domain 1902-2139)", "target or system": "dx (Drosophila melanogaster, UniProt Q23985)", "assay": "AUC", "measurement": "Kd", "result": "12800 nM"}
{"Substance": "PARRSEELVAEAHNLCTLLENAIQDTVREQDQSFTALDWSWLQTE (IKBKB 701-745 K703R/K704R (UniProt O14920); N-terminal FITC; sequence looked up)", "target or system": "IKBKG residues 44-113 T50E/L55R/R75V/E78R", "assay": "fluorescence polarisation", "test system": "peptide", "measurement": "Kd", "result": "4080 nM"}
{"Substance": "PARSSSYHLALQ (PHLDB1 GBR (Homo sapiens); phosphoserine)", "target or system": "DLG4 GK domain (Rattus norvegicus)", "assay": "ITC", "test system": "peptide", "measurement": "Kd", "result": "560 nM"}
{"Substance": "B8 (human catalase)", "target or system": "PP6C (human)", "assay": "co-immunoprecipitation, IP-MS", "test system": "CYB5R4 knockout cells", "setting": "concentration not given", "scale": "relative to: CYB5R4 knockout over parental", "measurement": "log2 fold change", "result": -0.32}
{"Substance": "B9", "target or system": "IL18BP (Homo sapiens, UniProt O95998)", "assay": "SPR", "measurement": "Kd", "result": "0.014 nM"}
